Published values collected from several papers.
Each line is one published result; not all experiments were run side by side. ± marks the error that the study gave.

For `COc1c2c(cc3oc(COC4OC(CO)C(O)C(O)C4O)cc(=O)c13)OC(C(C)(C)O)C2` (centres unmarked), “hot plate latency” read 8.29 ± 1.72 s (analgesic effect; Kunming mouse, female; oral, 1 mg/kg, 0 h, 55 °C, before dosing, 30 s cut-off).
Under “left ventricular ejection fraction”, `CCOc1c(C(C)(C)O)sc2cnc(Nc3ccc(N4CCC(N5CC6(COC6)C5)CC4)cc3OC)nc12` is recorded as 46.1 ± 3.7% (echocardiography; mouse, TAC heart failure; oral, 30 mg/kg/day, 3 weeks after TAC, 7 days dosing).
`CCCC[C@H](NC(=O)[C@@H](NC(=O)[C@H](CC(=O)O)NC(=O)[C@H](CCC(N)=O)NC(=O)[C@H](CC(C)C)NC(=O)[C@H](CC(C)C)NC(=O)[C@H](CCCN)NC(=O)[C@H](CCCNC(=N)N)NC(=O)[C@H](C)NC(=O)[C@H](CO)NC(=O)[C@H](CC(C)C)NC(=O)[C@H](CCC(N)=O)NC(=O)[C@H](CC)NC(=O)[C@H](CC(C)C)NC(=O)[C@@H](NC(=O)[C@H](CCCN)NC(=O)[C@H](CCCNC(=N)N)NC(=O)[C@H](Cc1ccc(O)cc1)NC(=O)[C@H](CO)NC(=O)[C@H](CCC(N)=O)NC(=O)[C@@H](NC(=O)[C@H](Cc1ccccc1)NC(=O)[C@@H](NC(=O)[C@H](C)NC(=O)[C@H](CC(=O)O)NC(=O)[C@@H](C)NC(=O)CCc1ccc(O)cc1)[C@@H](C)CC)[C@@H](C)O)C(C)C)[C@@H](C)CC)C(=O)N[C@@H](CC(=O)O)C(=O)N[C@@H](CCCNC(=N)N)C(=O)NC` has a relative potency of 57.2 (GH release; male rat, serum; subcutaneous, dose not given, 15 min; relative to: GHRH(1-29)NH2).
For `CC(C)[C@@H]1NC(=O)[C@H](Cc2ccccc2)NC(=O)[C@]2(CC[C@H](c3ccccc3)CC2)NC(=O)[C@@H](N)CSSC[C@@H](C(=O)N2CCC[C@H]2C(=O)N[C@@H](CCCNC(=N)N)C(=O)NCC(N)=O)NC(=O)[C@H](CC(N)=O)NC1=O`, the pA2 was 6.85 (pressor response, antagonist; phenoxybenzamine-treated male rats, urethane anaesthesia; intravenous, 1 min before AVP, added: AVP).
`O=C(O)CNC(=O)CNC(=O)[C@@H]1CCCN1C(=O)[C@@H]1CCCN1` has an activation energy of 18.4 ± 0.239 kcal/mol (diketopiperazine formation, Arrhenius plot, ESI-MS; 1-propanol; 70, 80, 90 °C, 0.5% acetic acid).
With `CCCC[C@H](NC(=O)[C@@H](NC(=O)[C@H](CC(=O)O)NC(=O)[C@H](CCC(N)=O)NC(=O)[C@H](CC(C)C)NC(=O)[C@H](CC(C)C)NC(=O)[C@H](CCCN)NC(=O)[C@H](CCCNC(=N)N)NC(=O)[C@H](C)NC(=O)[C@H](CO)NC(=O)[C@H](CC(C)C)NC(=O)[C@H](CCC(N)=O)NC(=O)[C@H](CC)NC(=O)[C@H](CC(C)C)NC(=O)[C@@H](NC(=O)[C@H](CCCN)NC(=O)[C@H](CCCNC(=N)N)NC(=O)[C@H](Cc1ccc(O)cc1)NC(=O)[C@H](CO)NC(=O)[C@H](CC(N)=O)NC(=O)[C@@H](NC(=O)[C@H](Cc1ccccc1)NC(=O)[C@@H](NC(=O)[C@H](C)NC(=O)[C@H](CC(=O)O)NC(=O)[C@@H](C)NC(=O)[C@H](Cc1ccc(O)cc1)NC)[C@@H](C)CC)[C@@H](C)O)C(C)C)[C@@H](C)CC)C(=O)N[C@@H](CC(=O)O)C(=O)NCCCCNC(=N)N` the relative potency was 132 (GH release; male rat, serum; subcutaneous, dose not given, 30 min; relative to: GHRH(1-29)NH2).
Under “T and B lymphocytes”, `COC(=O)[C@H](CSSC(C)(C)[C@H](NC(=O)[C@H](CCC(=O)NC[C@H](O)[C@@H](O)[C@H](O)[C@H](O)CO)NC(=O)[C@H](CCC(=O)O)NC(=O)[C@H](CCC(=O)NC[C@H](O)[C@@H](O)[C@H](O)[C@H](O)CO)NC(=O)[C@H](CCC(=O)O)NC(=O)[C@H](CCC(=O)NC[C@H](O)[C@@H](O)[C@H](O)[C@H](O)CO)NC(=O)CC[C@H](NC(=O)c1ccc(NCc2cnc3nc(N)[nH]c(=O)c3n2)cc1)C(=O)O)C(=O)O)NC(=O)CC[C@H](NC(=O)c1ccc(NCc2cnc3nc(N)nc(N)c3n2)cc1)C(=O)O` is recorded as “no effect” (flow cytometry; Lewis rat, healthy or arthritic, blood; 1000 nmol/kg twice weekly × 1).
With `CCCC[C@H](NC(=O)[C@@H](NC(=O)[C@H](CC(=O)O)NC(=O)[C@H](CCC(N)=O)NC(=O)[C@H](CC(C)C)NC(=O)[C@H](CC(C)C)NC(=O)[C@H](CCCN)NC(=O)[C@H](CCCNC(=N)N)NC(=O)[C@H](C)NC(=O)[C@H](CO)NC(=O)[C@H](CC(C)C)NC(=O)[C@H](CCC(N)=O)NC(=O)[C@H](CC)NC(=O)[C@H](CC(C)C)NC(=O)[C@@H](NC(=O)[C@H](CCCN)NC(=O)[C@H](CCCNC(=N)N)NC(=O)[C@H](Cc1ccc(O)cc1)NC(=O)[C@H](CO)NC(=O)[C@H](CCC(N)=O)NC(=O)[C@@H](NC(=O)[C@H](Cc1ccccc1)NC(=O)[C@@H](NC(=O)[C@H](C)NC(=O)[C@H](CC(=O)O)NC(=O)[C@@H](C)NC(=O)[C@H](Cc1ccc(O)cc1)NC)[C@@H](C)CC)[C@@H](C)O)C(C)C)[C@@H](C)CC)C(=O)N[C@@H](CC(=O)O)C(=O)NCCCCNC(=N)N` the relative potency was 1 to 4 fold (GH release; rat, male, serum; subcutaneous, dose not given, 15 and 30 min; relative to: reference GHRH agonist JI-38).
With `O=[N+]([O-])c1cc(Br)cc([N+](=O)[O-])c1NS(=O)(=O)c1ccc(Br)cc1` the germination rate was greater than 70% (Arabidopsis thaliana Col-0 seeds; 1 µM, added: ABA 1 µM).
With `Cc1nc(C)c(C=[N+]([O-])C(C)(C)C)nc1C` the PGC-1α level was 63% (immunofluorescence; MPTP-treated mice, dopaminergic neurons; dose not given; relative to: sham).
The H2O2 scavenging of `COc1ccc(NCc2cc(=O)c(O)c[nH]2)cc1` is reported as 67.2 ± 1.14% (0.312 mg/mL, 20 min).
The relative potency of `CCCC[C@H](NC(=O)[C@@H](NC(=O)[C@H](CC(=O)O)NC(=O)[C@H](CCC(N)=O)NC(=O)[C@H](CC(C)C)NC(=O)[C@H](CC(C)C)NC(=O)[C@H](CCCN)NC(=O)[C@H](CCCNC(=N)N)NC(=O)[C@H](C)NC(=O)[C@H](CO)NC(=O)[C@H](CC(C)C)NC(=O)[C@H](CCC(N)=O)NC(=O)[C@H](CC)NC(=O)[C@H](CC(C)C)NC(=O)[C@@H](NC(=O)[C@H](CCCN)NC(=O)[C@H](CCCNC(=N)N)NC(=O)[C@H](Cc1ccc(O)cc1)NC(=O)[C@H](CO)NC(=O)[C@H](CCC(N)=O)NC(=O)[C@@H](NC(=O)[C@H](Cc1c(F)c(F)c(F)c(F)c1F)NC(=O)[C@@H](NC(=O)[C@H](C)NC(=O)[C@H](CC(=O)O)NC(=O)[C@@H](C)NC(=O)[C@H](Cc1ccc(O)cc1)NC)[C@@H](C)CC)[C@@H](C)O)C(C)C)[C@@H](C)CC)C(=O)N[C@@H](CC(=O)O)C(=O)N[C@@H](CCCNC(=N)N)C(=O)NC` is reported as 1.33 (GH release; rat, male, serum; subcutaneous, 3 µg/kg, 30 min; relative to: reference GHRH agonist JI-38).
The TUNEL-positive cells of `CC(C)[C@H](CO)Nc1nc(Nc2ccc(C(=O)NCCNS(=O)(=O)c3cccc4c(N(C)C)cccc34)c(Cl)c2)c2ncn(C(C)C)c2n1` is reported as 8.9 ± 1.8% (ND2-SmoA1 mice, medulloblastoma tumour; dose not given).
For `CC[C@H]1[C@@H](O)[C@@H]2[C@H](CC[C@]3(C)[C@@H]([C@H](C)CCOS(=O)(=O)[O-])CC[C@@H]23)[C@@]2(C)CC[C@@H](O)C[C@@H]12.[Na+]`, the body weight was 48.2 ± 1 g (ob/ob NASH mouse model; oral, 3 mg/kg once daily, before treatment, baseline of 8 week study).
`NCCCC[C@H](N)C(=O)N1CCC[C@H]1C(=O)NCC(=O)NCC(=O)O` gave an activation energy of 23.7 ± 6.45 kcal/mol (diketopiperazine formation, Arrhenius plot, ESI-MS; 1-propanol; 70, 80, 90 °C, 0.5% acetic acid).
For `O=C1/C(=C/c2ccc(O)cc2)Oc2cc(O)c3c(oc4cc(O)c(O)cc43)c21`, the EC50 was 2960 µM (ABTS scavenging, absorbance).
For `CCCOC(=O)Cc1c(C)n(C(=O)c2ccc(Cl)cc2)c2ccc(OC)cc12`, “latency of nociceptive response” read 15.2 ± 1.31 s (hot plate test; BALB/c mice; 75 mg/kg, 120 min).
For `CCCC[C@H](NC(=O)[C@@H](NC(=O)[C@H](CC(=O)O)NC(=O)[C@H](CCC(N)=O)NC(=O)[C@H](CC(C)C)NC(=O)[C@H](CC(C)C)NC(=O)[C@H](CCCN)NC(=O)[C@H](CCCNC(=N)N)NC(=O)[C@H](C)NC(=O)[C@H](CO)NC(=O)[C@H](CC(C)C)NC(=O)[C@H](CCC(N)=O)NC(=O)[C@H](CC)NC(=O)[C@H](CC(C)C)NC(=O)[C@@H](NC(=O)[C@H](CCCN)NC(=O)[C@H](CCCNC(=N)N)NC(=O)[C@H](Cc1ccc(O)cc1)NC(=O)[C@H](CO)NC(=O)[C@H](CCC(N)=O)NC(=O)[C@@H](NC(=O)[C@H](Cc1ccccc1)NC(=O)[C@@H](NC(=O)[C@H](C)NC(=O)[C@H](CC(=O)O)NC(=O)[C@@H](C)NC(=O)[C@H](Cc1ccc(O)cc1)N(C)C(C)=O)[C@@H](C)CC)[C@@H](C)O)C(C)C)[C@@H](C)CC)C(=O)N[C@@H](CC(=O)O)C(=O)NCCCCNC(=N)N`, the relative potency was 33.6 (GH release; male rat, serum; subcutaneous, dose not given, 30 min; relative to: GHRH(1-29)NH2).
`CC(CCC(=O)NCc1ccc(C(=O)NO)cc1)C1CCC2C3C(O)CC4CC(O)CCC4(C)C3CCC12C` (centres unmarked) — result for “hepatic cystic area”: “decreased” (CK19 histology; PCK rats, liver; dose not given; relative to: untreated).
`CCCCSc1nnc(-c2cc([N+](=O)[O-])ccc2Cl)o1` gave an IC50 of 39.2 ± 2.2 µM (nitric oxide scavenging).
`[2H]C([2H])([2H])C(c1cc2nnc(-c3cc(F)ccc3F)n2nc1OCc1ncnn1C)(C([2H])([2H])[2H])C([2H])([2H])[2H]` — result for “afterdischarge duration change”: -66% (amygdala-kindled Wistar rats, cortex; oral, 30 mg/kg, 2 h before stimulation; relative to: baseline).
`COc1cc(Cn2ccc3cc(C(=O)NCC45CC6CC(CC(C6)C4)C5)ccc32)ccc1C(=O)NO`: “amyloid plaque area” “decreased” (immunohistochemistry; 5xFAD mice, brain; intraperitoneal, 10 mg/kg daily, 2 months; relative to: vehicle).
`Cc1cc2c(cc1C1(c3ncc(C(=O)O)cn3)CC1)C(C)(C)CCC2(C)C`: “log2 fold change” 0.007 (RNA sequencing, measured: Epha3 mRNA; rat, brain; dose not given, 24 h, single dose; relative to: vehicle).
`CCCCCCCCCCCCCCCC(=O)NCCCC[C@H](NC(=O)[C@H](CCC(=O)O)NC(=O)[C@H](Cc1ccc(O)cc1)NC(=O)[C@H](CCC(=O)O)NC(=O)COCC(=O)NCCCOCCOCCOCCCNC(=O)[C@H](Cc1ccccc1)NC(=O)[C@H](CC(N)=O)NC(=O)[C@H](Cc1c[nH]cn1)NC(=O)[C@@H](NC(=O)[C@H](CC(=O)O)NC(=O)[C@H](CCC(N)=O)NC(=O)[C@H](CC(C)C)NC(=O)[C@H](CCCCN)NC(=O)[C@H](CCCCN)NC(=O)[C@H](CCCNC(=N)N)NC(=O)[C@H](CC(C)C)NC(=O)[C@H](Cc1c[nH]c2ccccc12)NC(=O)[C@H](CCC(=O)O)NC(=O)[C@@H](NC(=O)[C@H](CCCNC(=N)N)NC(=O)[C@H](CCC(=O)O)NC(=O)[C@H](CCSC)NC(=O)[C@H](CO)NC(=O)[C@H](CC(N)=O)NC(=O)[C@H](CC(C)C)NC(=O)[C@H](Cc1c[nH]cn1)NC(=O)[C@H](CCCCN)NC(=O)CNC(=O)[C@H](CC(C)C)NC(=O)[C@H](CC(N)=O)NC(=O)[C@H](Cc1c[nH]cn1)NC(=O)[C@H](CCSC)NC(=O)[C@H](CC(C)C)NC(=O)[C@H](CCC(N)=O)NC(=O)[C@@H](NC(=O)[C@H](CCC(=O)O)NC(=O)[C@H](CO)NC(=O)[C@@H](NC(=O)[C@@H](N)CO)C(C)C)[C@@H](C)CC)C(C)C)C(C)C)C(=O)N[C@@H](CCC(=O)O)C(=O)N[C@@H](Cc1ccc(O)cc1)C(=O)N[C@@H](CCC(=O)O)C(N)=O` — result for “duration of phosphate decrease”: no less than 6 h (CD-1 mice, plasma; sc, 10 nmol/kg).
`CNC(=O)N(C)c1ccc(C(=O)Nc2ccc(Cl)cc2C(=O)Nc2ccc(Cl)cn2)cc1` — result for “concentration doubling prothrombin time”: 2.5 ± 0.5 µM (human plasma).
With `Cc1cc(O)c(C=O)c2c1C(=O)Oc1c(CO)c(O)c3c(c1O2)C(O)OC3=O` (centres unmarked) the sperm motility was 80 ± 5.25% (rat, male, streptozotocin-induced diabetes, cauda epididymis; 10 mg/kg, 9 weeks).

For quick reference, copied from above:
`[2H]C([2H])([2H])C(c1cc2nnc(-c3cc(F)ccc3F)n2nc1OCc1ncnn1C)(C([2H])([2H])[2H])C([2H])([2H])[2H]` — result for “afterdischarge duration change”: -66% (amygdala-kindled Wistar rats, cortex; oral, 30 mg/kg, 2 h before stimulation; relative to: baseline).
For `CC(C)[C@@H]1NC(=O)[C@H](Cc2ccccc2)NC(=O)[C@]2(CC[C@H](c3ccccc3)CC2)NC(=O)[C@@H](N)CSSC[C@@H](C(=O)N2CCC[C@H]2C(=O)N[C@@H](CCCNC(=N)N)C(=O)NCC(N)=O)NC(=O)[C@H](CC(N)=O)NC1=O`, the pA2 was 6.85 (pressor response, antagonist; phenoxybenzamine-treated male rats, urethane anaesthesia; intravenous, 1 min before AVP, added: AVP).
`Cc1cc2c(cc1C1(c3ncc(C(=O)O)cn3)CC1)C(C)(C)CCC2(C)C`: “log2 fold change” 0.007 (RNA sequencing, measured: Epha3 mRNA; rat, brain; dose not given, 24 h, single dose; relative to: vehicle).
